Results from different studies.
Each numbered part is a random draw from the data of one study; scales do not carry over between parts.

Sample 1
Target: Prothrombin, mature alpha-thrombin (F2, Homo sapiens, UniProt P00734)
Method: aptamer microarray, sandwich
Molecule type: DNA with 2'F-ANA
Medium: in vitro
Tested at: 200 nM
Notes: whole 15-mer aptamer, many near background
Together with: Cy3 exosite-II aptamer, 400 nM
Direction: higher = stronger binding
Measurement: mean fluorescence intensity
Oligonucleotide: GGTTGGTGTGGTTGG
2'F-ANA at 5 6 7 14: 46 a.u.
2'F-ANA at 2 3 8 10 12 13 15: 404 a.u.
2'F-ANA at 1 2 3 6 8 10 12 13: 74.3 a.u.
2'F-ANA at 2 4 5 6 7 8 9 10 11 12 14: 54.5 a.u.
2'F-ANA at 3 7 8 10 12 13 15: 693 a.u.
2'F-ANA at 1 3 10 11 12 15: 108 a.u.
2'F-ANA at 1 6 8 10 14: 47.5 a.u.
2'F-ANA at 1 4 7 8 10 12: 57.9 a.u.
2'F-ANA at 2 3 4 5 6 10 11 14: 50 a.u.
2'F-ANA at 1 3 5 6 7 8 10 12 13 14: 55.8 a.u.
2'F-ANA at 5 6 9 10 12 13 15: 50.5 a.u.
2'F-ANA at 2 3 7 8 9 12 14: 519 a.u.
2'F-ANA at 3 4 5 6 7 9 10 14 15: 52.9 a.u.
2'F-ANA at 1 2 3 4 7 9 10 11 13 14 15: 53.9 a.u.
2'F-ANA at 2 3 5 7 10 11 12: 61 a.u.
2'F-ANA at 2 8 9 12 13 15: 510 a.u.
2'F-ANA at 2 8 9 10 13 14: 82.5 a.u.
2'F-ANA at 3 4 6 7 8 11 12 13 14: 295 a.u.
2'F-ANA at 1 2 7 8 9 13 14: 58.1 a.u.
2'F-ANA at 6 11 14: 185 a.u.
2'F-ANA at 1 2 3 5 6 7 9 10 12 13 14: 46.3 a.u.

Sample 2
Target: UBE2E3 UBC core domain (UniProt Q969T4)
Sequence of UniProt Q969T4 (whole entry, looked up): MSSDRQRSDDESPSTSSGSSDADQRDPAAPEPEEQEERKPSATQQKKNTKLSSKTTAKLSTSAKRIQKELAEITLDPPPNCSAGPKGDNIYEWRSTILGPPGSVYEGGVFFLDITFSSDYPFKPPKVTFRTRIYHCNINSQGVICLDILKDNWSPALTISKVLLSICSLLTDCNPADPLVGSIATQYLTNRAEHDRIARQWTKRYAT
Method: yeast two-hybrid
Medium: yeast
Notes: mostly zero background
Relative to: not given
Direction: higher = stronger interaction
Measurement: lacZ reporter activity
B1: MKRN3 RING domain (UniProt Q13064); chain FAVQRGMDKVCGICMEVVYEKANPNDRRFGILSNCNHSFCIRCIRRWRSARQFENRIVKSCPQCRVTSELVIPSE
B2: NFX1 RING domain (UniProt Q12986); chain IEQLTTEKYECMVCCELVRVTAPVWSCQSCYHVFHLNCIKKWARSPASQADGQSGWRCPACQNVSAHVPNTY
B3: ZNRF4 RING domain (UniProt Q8WWF5); chain VRTFTWHNDLCAICLDEYEEGDQLKILPCSHTYHCKCIDPWFSQAPRRSCPVCKQSVAATEDSF
B4: RNF186 RING domain (UniProt Q9NXI6); chain HSGSTECDLECLVCREPYSCPRLPKLLACQHAFCAICLKLLLCVQDNTWSITCPLCRKVTAVPGGLI
FAEQPSVKLCCQLCCSVFKDPVITTCGHTFCRRCALKSEKCPVDNVKLTVVVNNI (TRAF7 RING domain (UniProt Q6Q0C0)): 0
B1 (MKRN3 RING domain): 0
B2 (NFX1 RING domain): 0
LEALSSDFLACKICLEQLRAPKTLPCLHTYCQDCLAQLADGGRVRCPECRETVPVPPEGV (TRIM56 RING domain (UniProt Q9BRZ2)): 0
B3 (ZNRF4 RING domain): 14700
B4 (RNF186 RING domain): 0
DDVLTKDAGECVICLEELLQGDTIARLPCLCIYHKSCIDSWFEVNRSCPEHPAD (ZNRF1 RING domain (UniProt Q8ND25)): 0

Sample 3
Target: Centromere-binding protein 1, full length, His-tagged (CBF1, Saccharomyces cerevisiae, UniProt P17106, residues 1-351)
Sequence of UniProt P17106 (whole entry, looked up): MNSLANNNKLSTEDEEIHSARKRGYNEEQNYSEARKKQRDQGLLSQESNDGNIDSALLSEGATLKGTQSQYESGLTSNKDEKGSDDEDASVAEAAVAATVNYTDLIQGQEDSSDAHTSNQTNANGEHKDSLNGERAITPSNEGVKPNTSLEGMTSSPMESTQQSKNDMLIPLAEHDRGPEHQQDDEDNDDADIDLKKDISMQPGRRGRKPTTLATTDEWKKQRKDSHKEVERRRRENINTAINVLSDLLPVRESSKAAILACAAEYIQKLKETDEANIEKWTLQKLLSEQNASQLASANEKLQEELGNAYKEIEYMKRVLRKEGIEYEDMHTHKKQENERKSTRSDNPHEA
Method: competition protein-binding microarray
Molecule type: double-stranded DNA, one strand shown
Medium: in vitro
Tested at: 2 µM
Notes: whole 60-bp probe, lowest competitor level
Together with: Pho4 competitor, 0.05 µM
Direction: higher = stronger binding
Measurement: fluorescence intensity
TGCGCAACAACTTGCTACGTGGGTGTATGTCTAGAAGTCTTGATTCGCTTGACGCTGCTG: 71.5 a.u.
GAGTCGTCATCCAACCTCGTGATGGAGGTTTTCAGTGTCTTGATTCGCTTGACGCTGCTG: 306 a.u.
CGGGGTTAAGTTTGTCTTGTGGGTGGCTTGCAGCAGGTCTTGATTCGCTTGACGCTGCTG: 82.1 a.u.
GTCTTGTCTCATTGCATGGTGGGTGTCCCCACTTCAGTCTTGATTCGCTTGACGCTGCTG: 77.4 a.u.
GGCAGCCTTTTCCATCTCGTGAAATGTTTCAGCCTTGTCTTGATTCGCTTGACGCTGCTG: 112 a.u.
CGGGGTTAAGTTTGGGATGTGGGTGGCTTGCAGCAGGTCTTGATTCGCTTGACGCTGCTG: 63.9 a.u.
AAAAGCAACTCGACCGTCGTGGGTACAAACCCCACCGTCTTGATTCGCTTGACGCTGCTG: 63 a.u.
GTCTTGTCTCATTGTCACACGACTTTCCCCACTTCAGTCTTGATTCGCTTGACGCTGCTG: 158 a.u.
ATAACCGCGCAATACCGCGTGCTGTATCGGCGTCCAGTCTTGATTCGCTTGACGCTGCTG: 86 a.u.
ATGCCCTATTAAAAATTCGTGGGACTATGATAATTTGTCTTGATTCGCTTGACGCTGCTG: 77.3 a.u.
CAACCAACTGACGAAACCGTGATGGTCATTAGAACTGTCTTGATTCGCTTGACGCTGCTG: 70.6 a.u.
ACAAGACGCTGCCATCACGCAAACTATGTTTTGACAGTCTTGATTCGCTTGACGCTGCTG: 86.4 a.u.
CCTCCGTTAGGTTGTCATGCCCCGAGGGTGCGAGGTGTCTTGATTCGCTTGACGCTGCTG: 76 a.u.
CTTCTGTAAATTTTTCACGTGTACTGACGCGCCCCGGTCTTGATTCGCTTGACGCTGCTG: 800 a.u.

Sample 4
Target: RING finger protein unkempt homolog, zinc fingers 1-6, SBP tag (UNK, Homo sapiens, UniProt Q9C0B0, residues 30-357)
Sequence of UniProt Q9C0B0 (30-357, looked up): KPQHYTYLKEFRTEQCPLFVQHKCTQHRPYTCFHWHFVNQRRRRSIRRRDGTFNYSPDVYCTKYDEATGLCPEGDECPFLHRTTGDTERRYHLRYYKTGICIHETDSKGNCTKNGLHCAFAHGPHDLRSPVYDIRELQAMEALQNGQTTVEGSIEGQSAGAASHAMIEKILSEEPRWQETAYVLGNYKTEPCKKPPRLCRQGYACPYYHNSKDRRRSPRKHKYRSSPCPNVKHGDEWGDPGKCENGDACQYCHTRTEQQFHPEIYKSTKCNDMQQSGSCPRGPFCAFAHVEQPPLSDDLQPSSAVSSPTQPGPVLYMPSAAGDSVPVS
Method: RNA Bind-n-Seq
Molecule type: RNA
Medium: in vitro
Tested at: 100 nM
Notes: RNA with constant flanks, vertebrate orthologous sites, ends assumed
Relative to: input RNA pool
Direction: higher = stronger binding
Measurement: bound/input enrichment
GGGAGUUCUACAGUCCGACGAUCAUAGUGUUCAUUGUACUGCAACAAUCAUCCUACAUCUGAGCUAGCCACAUAAUACUCUACUAACAGAAUCGUUGAUUAUUACCUUUUAAAUCAUCUGUUUUGUCAGAUACCGGAAAUGUACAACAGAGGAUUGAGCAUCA: 0.676 ratio
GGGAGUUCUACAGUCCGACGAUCCUUCCCCCAACUUCAGUUUUUCAGGUUGUAGCUCAUCCAUCUUUUCUUCUUCCCCUCCUCUCACUGUUGCUUUCUUUUCCUUUCUGUCUGCCCAACUCCAGACAUAUGAGCUCUUCCCCUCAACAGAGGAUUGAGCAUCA: 1.06 ratio
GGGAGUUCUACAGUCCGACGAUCCUACACCAGAUAUUUUAACUGUUUUAAAGUUACAAACAAGCUUUGCUUUUUGCAUUUAAAUAGAAUACUUUUAUAUUGUAAGUGCUUCAGAUGUGGGGAGAUGUUAGUUUGCUCAUAUAACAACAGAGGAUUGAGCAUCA: 1.02 ratio
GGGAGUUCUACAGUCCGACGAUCUACUGGGUUGUGACAGUCCUCCUACCUCUCACACAGCACAGGGAGGACACCGGUCAGCAUCGGGGAGUCAGCUGCUCUUACGUUUUCAGUGCUGUGUAUCUGAGCCUUGAACGAGUCUCACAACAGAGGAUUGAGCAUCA: 0.172 ratio
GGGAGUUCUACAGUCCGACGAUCCUUAAUUAGAGGGUAGUAUAUGUUUCAUAAAGAAGAGCCUUUAUAAUUUUGUUUGUCAUAUAGCAUUUUGGAAUUUGUAUAAUGAGAAUGUUUAGAAGCCAUAUCAAUGGCUUUUUUAAACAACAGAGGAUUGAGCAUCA: 0.677 ratio
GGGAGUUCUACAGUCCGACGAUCUAAUUCUAUGGUGGACGGGUCUGAAUUGAGGAAGGUUCGCUCCAACUCCAGAGUCUACCACCGUUACUUCCUUCUAGAUGCUGACAUGCAGUCACUGCGGUGGGAGCCGUCGAAAAAAGACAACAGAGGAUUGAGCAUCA: 0.241 ratio
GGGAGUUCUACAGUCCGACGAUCGAGUGCUUAAGCCGCCAACAGUUAGAAGAUGCUAUUUAUUUGUGUCUGUAAGUUUGUACAUAGCAAUGCCAGCCUUGUUGCUGAAUUUUUUAUUUGGGGGGGAUGAGUUUGAAUUUUGUUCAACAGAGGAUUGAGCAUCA: 1.77 ratio
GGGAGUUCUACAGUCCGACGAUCUUUUAUUGAUCAGGUCUGUAAAUGUGUACUAAAAAAAUCAGAGUUUAUUUAUAAACAGAAUAGUUUAUUUAAAGAGAAGGUCUUUCUUUAUUGAUAUUCUGGUAUGCAUUAAUUCCAUUUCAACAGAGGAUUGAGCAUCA: 0.222 ratio
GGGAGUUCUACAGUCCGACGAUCGGGUCUACUGACCACUCACCAUUAAUGUCUGGUAUCUGUAAAACACUUUUUUUUUGUUCUUAGUCUUUUUCUUGUAUAAUUGAUGUUCUUUAAAAUUGUUAAUGUAUAACAGGGCUUAUGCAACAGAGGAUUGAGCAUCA: 1.2 ratio
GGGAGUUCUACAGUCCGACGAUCACGUAUUUAUACUGGCCAAACAUUUCUGACUUUGUAUUUCUUUGUCCUUUUUUGGUAGUUGGCGUUGUUUCCCCGCACCAUUUUUAUGUCUCCUUCACUGAAGGGCUAGAGUUUUAACUUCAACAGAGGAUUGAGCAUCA: 0.449 ratio
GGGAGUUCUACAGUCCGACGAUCGUGGUCUGCAGAGCAGUCGGCUGCUGGAGCAAGUCUGCACAGUGCCCACCAUCCACCAUCCUACUUCCAGGAAUUUAAUAUUUUUGAAAGUUUUACAAUGCUGUAUAUUCAAAGAUUGUUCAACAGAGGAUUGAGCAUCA: 0.262 ratio

Excerpt of the above (sample 3):
ATGCCCTATTAAAAATTCGTGGGACTATGATAATTTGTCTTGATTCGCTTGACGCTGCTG: 77.3 a.u.
GTCTTGTCTCATTGCATGGTGGGTGTCCCCACTTCAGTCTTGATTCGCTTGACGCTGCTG: 77.4 a.u.
CAACCAACTGACGAAACCGTGATGGTCATTAGAACTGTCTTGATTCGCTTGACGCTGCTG: 70.6 a.u.
GGCAGCCTTTTCCATCTCGTGAAATGTTTCAGCCTTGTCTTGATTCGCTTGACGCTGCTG: 112 a.u.
TGCGCAACAACTTGCTACGTGGGTGTATGTCTAGAAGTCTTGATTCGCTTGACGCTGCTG: 71.5 a.u.
CGGGGTTAAGTTTGGGATGTGGGTGGCTTGCAGCAGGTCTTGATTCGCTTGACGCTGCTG: 63.9 a.u.
CCTCCGTTAGGTTGTCATGCCCCGAGGGTGCGAGGTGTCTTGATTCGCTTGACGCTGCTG: 76 a.u.
GTCTTGTCTCATTGTCACACGACTTTCCCCACTTCAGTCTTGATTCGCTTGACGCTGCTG: 158 a.u.
CGGGGTTAAGTTTGTCTTGTGGGTGGCTTGCAGCAGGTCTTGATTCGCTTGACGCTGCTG: 82.1 a.u.
